# Results pooled from the literature.
# Parts stem from different laboratories: compare values within a part only. Changes are numbered by the printed parent chain.

# Set 1
# Target: Histone acetyltransferase KAT6A, winged helix 2, GST fusion (KAT6A, Homo sapiens, UniProt Q92794, residues 85-181)
# Method: protein binding microarray
# Molecule type: double-stranded DNA, one strand shown
# Matrix: in vitro
# Concentration: not given
# Notes: 8-mer, flanks averaged, mean of 2 arrays, mostly near background
# Relative to: not given
# Direction: higher = stronger binding
# Target sequence (chain): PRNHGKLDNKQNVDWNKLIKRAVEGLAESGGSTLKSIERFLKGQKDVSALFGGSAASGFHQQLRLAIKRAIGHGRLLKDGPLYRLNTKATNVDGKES
Oligonucleotide,E-score
GAAGCTGC,-0.00326
ATTCCAGA,-0.0428
GGCTCCTA,0.0664
TATCCCGA,0.0705
ACCAACTG,-0.115
ACGAGGCG,0.19
GCCTTCTA,-0.156
ACATCAAC,0.138
GAACCCCA,-0.0947
AAGATACC,0.0441
CCACAGGA,0.104
ACCACGCA,0.039
AATTCAAT,0.0355
CGATGCAC,-0.0743
AGTCGGAG,0.106
CATGCGCG,0.0567
ACTTTCCT,-0.184
GTAAGTCA,-0.117
ATGGCACA,-0.0383

# Set 2
# Target: CCNE2, cyclin fold, Cln2 fusion (human)
# Method: yeast growth competition, sequencing
# Matrix: yeast
# Notes: strong parent motif
# Relative to: not given
# Direction: higher = stronger binding
# Starting sequence: WEE1 docking peptide (human); HKTFRKLRLFDTP
Substitution,normalised enrichment score
HNTFRKLRLFDTP [K2N],0.876
HATFRKLRLFDTP [K2A],1.17
HKTFRKLRLHDTP [F10H],0.65
HKTFFKLRLFDTP [R5F],0.463
HKTFRKSRLFDTP [L7S],0.307
HKTFEKLRLFDTP [R5E],1.38
HKTFRNLRLFDTP [K6N],0.761
HKTFKKLRFFDTP [R5K L9F],-0.0876
HKTFRALRLFDTP [K6A],1.13
HKTFRKLRLFDYP [T12Y],0.815
HKTFWKLRLFDTP [R5W],1.05
HKAFRKLRLFDTP [T3A],0.475
HKTFRKLHLFDTP [R8H],0.447
HKTFRKLRLFDLP [T12L],0.665
HKTFRILRLFDTP [K6I],1.27
HKTGRKLRLFDTP [F4G],0.552
HKTVRKLRLFDTP [F4V],0.381
HKTFRKLRLTDTP [F10T],0.541
HKTFRKLRLFDTY [P13Y],1.11
HKTFRKLSLFDTP [R8S],1.14

# Set 3
# Target: RNA binding protein fox-1 homolog 2, RRM domain, GST-SBP tag (RBFOX2, Homo sapiens, UniProt O43251-10, residues 100-194)
# Method: RNA Bind-n-Seq
# Molecule type: RNA
# Matrix: in vitro
# Concentration: 365 nM
# Notes: natural RNA segment, single round, ends assumed
# Relative to: no-protein control
# Direction: higher = stronger binding
# Constant ends, left off below: GGGAGUUCUACAGUCCGACGAUC … UGGAAUUCUCGGGUGCCAA
# Residues (chain): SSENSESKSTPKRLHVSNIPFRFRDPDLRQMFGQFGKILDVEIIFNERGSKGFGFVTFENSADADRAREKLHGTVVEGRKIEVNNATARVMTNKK
Oligonucleotide,RBNS enrichment (R)
UGCUGGAUAGUACCCAAAUCACUUAAAACCUGUUUCCAUUCGCUUUUUACUUAAAAAUAAACAUUUGCGAGAAGUUACCAAGGCAGCUCUUGUCCUCAGAAGGAACCUGC,1.07
CGUGCUUCCUUUUUUCCUUUCCCAACAGUCCAAGAGCGCAGGAUCCAACUUUCUAGUCACGCUGUUCUGUAUUCAGUCAGCCCACAAGAAUAUGCAAACUCCAUCUCAAA,0.297
CCACCACCUCUGACCUCCUUGCCCCAGACCUGCUGGAGCAAGGGGACUGGAGCCUGUCCCAGAACAAGAGCGCCCUGGACUGCCCUCAUCAGCACCUAGACGUACCGCAC,0.318
CCUUCACGUUGUAAAUAUGUUUUGUAGAGUGAAGCCAUGGGAAGCCAUGUGUAACAGAGCUUAGACAUCCAAAACUAAUCAAUGCUGAGGUGGCUAAAUACCUAGCCUUU,0.31
UCAGAAGCAAGGACUCAAAAAGCAAAGGUGCACGGCGAGGCCACGAAGCCCACGCCAGCCCGGGGAUGGAGCAUGUAUGUAUUAUUUAUCUGCUGGAGUUCUACGUUUUU,2.28
AACUUUCCUAGAUAAACUUUAAGGUUUCUAUACUGAGGCUUUUAUAAUGAACGCACCUCGUUAAGUAUUUAUACUUGUAACUAACCCCAGGCAGGGACCUCAGCUUUGUU,0.492
GACUAGUGUGGUAACUAGGGAACAGAUGGCACUGCAGAGUGCUUCCCGCUCAUAUGAGAGAGCAGGUGUCUGCCCUUGAGAGCUGGUGAGCCGCGUCAUCUGUUUGCGCU,0.346
GUGAAGGGAAAAAUGAUUUUGCAAGACCUAGAUUUUGGCUUGGUUUCUUGCCUCCUUUUUUGGCAGCCUUCAUCUUUUCCUAAAGCCCUUGAGCCUGUAGGGUUUUCAUA,1.66
AAUUUCUGGGAGAAAAAAAAUUGAGGAAAUAAAGUUAAAAAAUUGACAUUCAUUGAGCCAAAAGAGAUGUGGAGAAACAUUUUUCACCUUUCUGUUUGGCCUGAUUAACA,0.45
UGGAUGUCCAGGCAAGACUGGGCGAAGUUUCUGAGUGGCCCUUUGUUUAGGUGACGUCCUCAGACCUGGACCCCCACCAGCCUCACUCCUCAUCCCAACCAGAGGUGGCA,0.457
AGACAGCAGCACUAGCAGACGGUCUUAGAACCUUCACACUGUCUCUACCACUACAUGGAAUGACAUAAAAGCAACUUGUAGGCCAGAGGGGUGGGGUGAACCCUUCUGUG,1.43
AGACAACAGUGCGGGAGUCCUGAGUGCUGGCUGUGCAGCCAGUUAAGUGUUCAUGUUCUAGUGAGCACGGGCUUGUCAAGGAGCAAAACACUAGAAUAAUUGAGCAGAGG,6.07

# Set 4
# Target: CREB3, bZIP domain (human)
# Method: DHFR protein complementation
# Matrix: yeast
# Notes: single substitutions, most at no-binding floor
# Relative to: wild-type JUN-FOS pair
# Direction: higher = stronger binding
# Starting sequence: JUN, bZIP domain (human); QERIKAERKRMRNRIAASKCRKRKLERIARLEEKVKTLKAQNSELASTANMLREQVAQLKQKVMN; partner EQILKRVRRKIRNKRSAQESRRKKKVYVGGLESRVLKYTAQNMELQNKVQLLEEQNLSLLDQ
Substitution,binding fitness
A46G,-1.44 natural log
L31G,-1.51 natural log
S47G,-1.35 natural log
E54Y,-1.48 natural log
L31A,-1.42 natural log
E44M,-1.51 natural log
L31Q,-1.6 natural log
A40Y,-1.41 natural log
V35I,-1.32 natural log
S43D,-1.37 natural log
R30T,-1.09 natural log
A57Q,-1.33 natural log
E33M,-1.46 natural log
L31H,-1.53 natural log
R53S,-1.38 natural log
A46T,-1.42 natural log

# Set 5
# Target: ABI1, truncated, D143A, DHFR fusion (Arabidopsis thaliana)
# Method: DHFR PCA, deep sequencing
# Matrix: yeast
# Notes: methotrexate growth selection, single substitutions
# Together with: (+)-ABA 0 µM
# Relative to: wild-type fitted maximum
# Direction: higher = stronger binding
# Starting sequence: PYL1, truncated, DHFR fusion (Arabidopsis thaliana); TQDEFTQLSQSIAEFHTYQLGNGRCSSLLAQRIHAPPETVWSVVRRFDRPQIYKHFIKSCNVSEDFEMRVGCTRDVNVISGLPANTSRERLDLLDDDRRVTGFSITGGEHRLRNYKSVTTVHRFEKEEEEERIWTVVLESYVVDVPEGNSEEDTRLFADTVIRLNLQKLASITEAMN
Substitution,relative binding score
G81P,28.8%
V44H,-4.93%
A84F,78.4%
K58C,-1.33%
E129K,19.1%
V143E,-0.026%
R163Q,29.1%
R113S,8.09%
S117L,2.72%
G148S,-4.34%
W41T,-3.68%
V40M,-6.37%
R90G,2.32%
F56T,-2.76%
V43M,2.39%
F5R,6.74%
A84Y,85.4%
L138R,-0.0536%
R90F,-4.13%

# Set 6
# Target: Ras GTPase-activating protein-binding protein 1, C-terminal RGG region (G3BP1, Homo sapiens, UniProt Q13283)
# Chain of UniProt Q13283 (whole entry, looked up): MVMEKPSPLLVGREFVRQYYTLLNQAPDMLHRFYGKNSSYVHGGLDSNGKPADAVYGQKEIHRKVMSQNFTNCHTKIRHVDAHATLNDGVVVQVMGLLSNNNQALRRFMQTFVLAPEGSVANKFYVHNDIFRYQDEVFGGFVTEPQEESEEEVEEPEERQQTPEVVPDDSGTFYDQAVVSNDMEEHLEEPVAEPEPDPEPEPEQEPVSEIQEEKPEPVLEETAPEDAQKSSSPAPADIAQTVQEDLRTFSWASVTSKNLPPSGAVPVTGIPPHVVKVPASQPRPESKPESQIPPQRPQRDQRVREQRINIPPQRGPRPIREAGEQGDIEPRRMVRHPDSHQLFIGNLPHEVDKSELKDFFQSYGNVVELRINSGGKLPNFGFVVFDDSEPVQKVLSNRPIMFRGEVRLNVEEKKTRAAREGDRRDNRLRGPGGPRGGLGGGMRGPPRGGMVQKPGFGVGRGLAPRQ
# Method: RNA Bind-n-Seq
# Molecule type: RNA
# Matrix: in vitro
# Concentration: 1 µM
# Notes: whole 134-nt RNA, ends assumed
# Together with: 150 mM KCl
# Relative to: input library
# Direction: higher = stronger binding
# Constant ends, left off below: GGGAGUUCUACAGUCCGACGAUC … UGGAAUUCUCGGGUGUCAAGG
Oligonucleotide,log2 enrichment
CUCAAGUCCUGUGCUACACAUCGUAUGUACCGAAUCGGGAGGGAGGGAAAGGGAAAGUAUUAUGUUACGCCGUUCGGAUCUGCACUUCCA,2.05
GUCCUGUGCUACACAUCGUAUGUACCGAAUCAAACCCCCAAAUUUUUUUAAACCCAAAAAAGUAUUAUGUUACGCCGUUCGGAUCUGCAC,-0.677
UAUCCCCUAUGAGGCACCACGUAAGACCUCCUGCCCUUAGCUCUCUUGCUCACCACCCAAGAACCUCAGGACAGAAGCGAGAGCCCAUUG,-0.367
AGUCCUGUGCUACACAUCGUAUGUACCGAAUCGGGUUUGGGUUUUUGGGUUUUUGGGAAAGUAUUAUGUUACGCCGUUCGGAUCUGCACU,0.571
UCAAGUCCUGUGCUACACAUCGUAUGUACCGAAUCGGCCCGGGGCCCGGCCCGGAAAGUAUUAUGUUACGCCGUUCGGAUCUGCACUUCC,-1.25
GCAGGAAGUAAAACCAAAUGGAAAUGCUUCGGAUAGUGGCAGGGGUGGGGGUUGCUAAGGAAAGGGUGGGAUGGGAGUGGGUAAAGAGUU,1.72
AAGUCCUGUGCUACACAUCGUAUGUACCGAAUCGGGGAAAAGGGGAAAAGGAAAAGGAAAGUAUUAUGUUACGCCGUUCGGAUCUGCACU,-1.52
UGGACAGGUUGCUGGACCCCGCCAACAGAGCCCACCUGGGCCUGGAGGAGCAGCUGAGAGAGCUGCUGGACAUGCUCGACCUCACCUGCG,-1
UGGCCCUGGUGGCAUGCGGGGAGGAAGAGGUGGCCUCAUGGAUCGUGGUGGUCCCGGUGCAAUGUUCAGAGGUGGCCGUGGUGGAGACAG,1.49
GCAGGAAGUAAAAACAAAUGGAAAAAAUUCGGAUAGUGGCAGGGGUGGGGGUUGCUAAGGAAAGGGUGGGAUGGGAGUGGGUAAAGAGUU,1.28
UCCUGUGCUACACAUCGUAUGUACCGAAUCGGGGAAAAAAGGAAAAAAGGGAAAAAAGGAAAGUAUUAUGUUACGCCGUUCGGAUCUGCA,-1.34
CUCAAGUCCUGUGCUACACAUCGUAUGUACCGAAUCGGAAAGGAAAGGAAAGGGAAAGUAUUAUGUUACGCCGUUCGGAUCUGCACUUCC,-1.41
CACAGACAACACGCACCCACACAGACACAGAGGGAAGGGGUUGGGAUGGGGACAGGAAACACAGCAGGGCGGGGUAGGACCCCAGCCCCU,0.00491
UCAAGUCCUGUGCUACACAUCGUAUGUACCGAAUCGGGGCCGGGGCCGGCCGGGAAAGUAUUAUGUUACGCCGUUCGGAUCUGCACUUCC,-1.47
